Assay results pooled from the literature.
Each line is one published result; not all experiments were run side by side. ± gives the spread as reported.

| Structure (SMILES) | organism | assay | system | setting | IC50 |
| --- | --- | --- | --- | --- | --- |
| CCOC(=O)C(CC)NC(=O)CN1C(=O)S/C(=C\c2ccc([N+](=O)[O-])cc2)C1=O (centres unmarked) | Trypanosoma brucei gambiense | cell viability | IL1922 | 72 h | > 66 µM |
| C#CCN1CCc2c(n(C(=C)C(=O)OC)c3ccccc23)C(C(=O)OC)C1 (centres unmarked) | Hepatitis B virus | viral replication, inhibitor, ELISA | HePAD38 | – | 1.34 µM |
| CCOC(=O)CNC(=O)CN1C(=O)S/C(=C\c2ccc(OC)c(O)c2)C1=O | Trypanosoma brucei gambiense | cell viability | IL1922 | 72 h | > 64 µM |
| O=[N+]([O-])c1ccc(/C=N/N=C/c2ccc(O)cc2)o1 | Trypanosoma evansi | parasite growth, CellTiter-Glo | Tansui bloodstream form | 72 h | 6.83 ± 2.66 µM |
| CCN(CC)CC#CCNc1ccnc2cc(Cl)ccc12 | Plasmodium falciparum | schizont maturation | field isolates | 20% human serum | 0.327 µM |
| O=C(Nc1cccc(C(=O)Nc2ccc(S(=O)(=O)O)c3cc(S(=O)(=O)O)cc(S(=O)(=O)O)c23)c1)Nc1cccc(C(=O)Nc2ccc(S(=O)(=O)O)c3cc(S(=O)(=O)O)cc(S(=O)(=O)O)c23)c1 | Hepatitis C virus | viral replication, inhibitor, luciferase | Huh7.5 | 72 h, replicon | > 25 µM |
| C#CCN1CCc2c3n(c4ccccc24)C(=O)C(=C)C3(C(=O)OC)C1 (centres unmarked) | Hepatitis B virus | viral replication, inhibitor, ELISA | HePAD38 | – | 2.48 µM |
| O=[N+]([O-])c1ccc(/C=N/N=C/c2ccc(F)cc2)o1 | Trypanosoma evansi | parasite growth, CellTiter-Glo | Tansui bloodstream form | 72 h | 2.66 ± 1.02 µM |
| O=C(O)[C@H](Cc1ccc2ccccc2c1)NC(=O)C1(c2ccc3ccccc3c2)CCN(S(=O)(=O)c2ccc([N+](=O)[O-])cc2)CC1 | Human immunodeficiency virus 1 | viral replication, inhibitor | – | – | 17 µM |
| COc1ccc(/C=N/N=C/c2ccc([N+](=O)[O-])o2)cc1 | Trypanosoma brucei gambiense | parasite growth, CellTiter-Glo | IL1922 bloodstream form | 72 h | 3.43 ± 1.2 µM |
| CCOC(=O)C(NC(=O)CN1C(=O)N/C(=C\c2ccc3c(c2)OCO3)C1=O)C(C)C (centres unmarked) | Trypanosoma brucei gambiense | cell viability | IL1922 | 72 h | > 66 µM |
| O=[N+]([O-])c1ccc(/C=N/N=C/c2ccc(Br)cc2)s1 | Trypanosoma evansi | parasite growth, CellTiter-Glo | Tansui bloodstream form | 72 h | 1.83 ± 0.54 µM |
| Cn1cc(-c2ccc3ccccc3c2)c2ccc(Cl)nc21 | Human immunodeficiency virus 1 | cell growth or viability, MTT | TZM-bl | 48 h | 170 µM |
| COc1ccc(/C=N/N=C/c2ccc([N+](=O)[O-])s2)cc1 | Trypanosoma evansi | parasite growth, CellTiter-Glo | Tansui bloodstream form | 72 h | 2.65 ± 0.42 µM |
| CCOC(=O)C(C)NC(=O)CN1C(=O)S/C(=C\c2ccc(F)cc2)C1=O (centres unmarked) | Trypanosoma brucei gambiense | cell viability | IL1922 | 72 h | > 64 µM |
| Nc1nc(-c2ccccc2)nc2[nH]nc(Nc3ccc(F)cc3)c12 | coxsackievirus B3 | plaque formation, plaque reduction | HeLa, Nancy wild type | – | 0.25 ± 0.06 µM |
| COC(=O)C1=CO[C@@H](C)[C@@H]2Cn3ccc4c5ccccc5nc-4c3C[C@H]12 | Plasmodium falciparum | [3H]hypoxanthine incorporation | 3D7 | 48 h | 40.6 ± 16.2 µM |
| CCOC(=O)C(CC)NC(=O)CN1C(=O)S/C(=C\c2ccc(C)cc2)C1=O (centres unmarked) | Trypanosoma brucei gambiense | cell viability | IL1922 | 72 h | > 59 µM |
| O=[N+]([O-])c1ccc(/C=N/N=C/c2ccc(OCc3ccccc3)cc2)s1 | Trypanosoma evansi | parasite growth, CellTiter-Glo | Tansui bloodstream form | 72 h | 12.3 ± 2.96 µM |
| N[C@H]1C[C@@H]1c1ccc(-c2cccc(O)c2)cc1 | herpes simplex virus 1 | viral IE gene expression, qRT-PCR | HeLa | 4 h pretreatment, infection 2 h | ~10 µM |

Repeated from above:
| Structure (SMILES) | organism | assay | system | setting | IC50 |
| --- | --- | --- | --- | --- | --- |
| CCOC(=O)C(CC)NC(=O)CN1C(=O)S/C(=C\c2ccc(C)cc2)C1=O (centres unmarked) | Trypanosoma brucei gambiense | cell viability | IL1922 | 72 h | > 59 µM |
| C#CCN1CCc2c(n(C(=C)C(=O)OC)c3ccccc23)C(C(=O)OC)C1 (centres unmarked) | Hepatitis B virus | viral replication, inhibitor, ELISA | HePAD38 | – | 1.34 µM |
